Results pooled from the literature.
Each numbered part is a random draw from the data of one study; scales do not carry over between parts.

Series 1
Target: Replicase polyprotein 1ab, nsp13 helicase (rep, Severe acute respiratory syndrome coronavirus 2, UniProt P0DTD1)
Mode: inhibitor
Tested at: 20 µM
`COC(=O)C1=C(C)NC(C)=C([N+](=O)[O-])[C@@H]1c1ccccc1C(F)(F)F` (racemic) gave an inhibition of 19.1%.
`C=CCn1c(=O)c2cnc(Nc3ccc(N4CCN(C)CC4)cc3)nc2n1-c1cccc(C(C)(C)O)n1` has an inhibition of 7.23%.
For `Nc1nc2n[nH]nc2c(=O)[nH]1`, the inhibition was 23.6%.
With `N#Cc1cnc2cnc(NCc3cccnc3)cc2c1Nc1ccc(F)c(Cl)c1` the inhibition was -1.27%.
For `Cc1o[nH]c(=O)c1C[C@H](N)C(=O)O`, the inhibition was 2.18%.
The inhibition of `O=C(O)Cn1c2c(c3cc(F)ccc31)CN(C(=O)c1cccc3ccccc13)CC2` is reported as 6.26%.
`COc1cccc(CCc2ccccc2OCC(CN(C)C)OC(=O)CCC(=O)O)c1` (stereo not shown) has an inhibition of -2.55%.
`CN(C)CCOC(=O)COc1ccc(Cl)cc1` has an inhibition of -1.34%.
`CC1=C(/C=C/C(C)=C/C=C/C(C)=C/C=C/C=C(C)/C=C/C=C(C)/C=C/C2=C(C)C(=O)[C@@H](O)CC2(C)C)C(C)(C)C[C@H](O)C1=O` has an inhibition of 5.82%.
`COC(=O)/C=C/C(=O)N[C@@H]1CC[C@@]2(O)[C@H]3Cc4ccc(O)c5c4[C@@]2(CCN3CC2CC2)[C@H]1O5` has an inhibition of 4.76%.
`COc1ccc(-n2c(SCc3nc(-c4ccc(C)cc4)no3)nnc2-c2ccncc2)cc1` gave an inhibition of 3.64%.
`CC(C)c1nc(N(C)S(C)(=O)=O)nc(-c2ccc(F)cc2)c1/C=C/[C@@H](O)C[C@@H](O)CC(=O)O` has an inhibition of 9.25%.

Series 2
Cell line: HEK-293T
Read-out: pseudovirus infection
Technique: FDA-approved drug library screen
Organism: VSV pseudotyped with SARS-CoV-2 spike
Tested at: 10 µM
Time: 16 h
Baseline: vehicle-treated
For `CC(=O)NCCCS(=O)(=O)O`, the GFP-positive cells was 105%.
With `COCCCOc1cc(C[C@@H](C[C@H](N)[C@@H](O)C[C@H](C(=O)NCC(C)(C)C(N)=O)C(C)C)C(C)C)ccc1OC` the GFP-positive cells was 60.6%.
`CCCCC(=O)O[C@]1(C(=O)CO)[C@@H](C)C[C@H]2[C@@H]3CCC4=CC(=O)C=C[C@]4(C)[C@@]3(F)[C@@H](O)C[C@@]21C` gave a GFP-positive cells of 74.8%.

Series 3
Target: Sal-like protein 4, full length isoform A (SALL4, Homo sapiens, UniProt Q9UJQ4, residues 1-1053)
Chain of UniProt Q9UJQ4 (whole entry, looked up): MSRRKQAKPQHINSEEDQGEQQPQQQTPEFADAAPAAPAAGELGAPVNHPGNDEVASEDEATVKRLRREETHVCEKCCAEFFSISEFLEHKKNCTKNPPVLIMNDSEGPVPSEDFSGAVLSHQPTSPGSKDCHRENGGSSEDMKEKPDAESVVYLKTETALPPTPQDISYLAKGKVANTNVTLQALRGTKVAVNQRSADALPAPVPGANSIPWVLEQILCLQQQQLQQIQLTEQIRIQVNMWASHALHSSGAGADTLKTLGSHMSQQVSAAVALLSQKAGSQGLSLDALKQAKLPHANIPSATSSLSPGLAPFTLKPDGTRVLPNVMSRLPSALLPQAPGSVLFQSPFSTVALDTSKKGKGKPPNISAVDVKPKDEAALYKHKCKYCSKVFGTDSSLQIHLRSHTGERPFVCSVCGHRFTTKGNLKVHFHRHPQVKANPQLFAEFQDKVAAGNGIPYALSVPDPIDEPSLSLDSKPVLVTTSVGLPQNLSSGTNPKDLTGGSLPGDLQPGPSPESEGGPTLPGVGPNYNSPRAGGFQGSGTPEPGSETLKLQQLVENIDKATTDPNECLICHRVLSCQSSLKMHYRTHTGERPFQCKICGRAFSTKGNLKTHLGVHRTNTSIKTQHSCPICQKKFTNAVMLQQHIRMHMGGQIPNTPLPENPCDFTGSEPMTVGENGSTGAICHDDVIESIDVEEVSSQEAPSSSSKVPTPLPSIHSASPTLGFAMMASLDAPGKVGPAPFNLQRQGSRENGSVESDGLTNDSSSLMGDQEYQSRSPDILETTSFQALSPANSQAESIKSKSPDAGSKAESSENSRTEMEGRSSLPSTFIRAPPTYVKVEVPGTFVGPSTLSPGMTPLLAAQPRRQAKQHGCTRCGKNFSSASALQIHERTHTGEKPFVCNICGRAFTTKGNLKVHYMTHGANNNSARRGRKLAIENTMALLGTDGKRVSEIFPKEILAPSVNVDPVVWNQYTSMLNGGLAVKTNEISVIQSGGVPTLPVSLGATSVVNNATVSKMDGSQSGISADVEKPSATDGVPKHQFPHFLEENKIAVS
Technique: universal PBM
Molecule type: double-stranded DNA, one strand shown
Medium: in vitro
Tested at: 600 nM
Notes: 8-mer, flanks averaged, mean of replicates
Reading: higher = stronger binding
`CGCGGCGC` gave an E-score of -0.147.
The E-score of `AGCCGTCC` is reported as -0.14.
For `ATGCAGTA`, the E-score was 0.121.
With `ACTGCCAG` the E-score was -0.0786.
With `ATCGGGAC` the E-score was -0.191.
With `ATCCAACG` the E-score was -0.0729.
For `AGTGATAA`, the E-score was 0.259.
`CGTCCACC` gave an E-score of -0.284.

Series 4
Target: Interferon regulatory factor 7, full length, phosphomimetic (IRF7, Homo sapiens, UniProt Q92985, residues 1-503, S471D/S472D/S475D/S476D/S477D/S483D/S484D/S487D)
Technique: protein-binding microarray
Molecule type: double-stranded DNA, one strand shown
Medium: in vitro
Tested at: 2200 nM top
Notes: 60-bp whole probe
Together with: salmon DNA 0.4 mg/ml
Baseline: random background probes
Reading: higher = stronger binding
Constant ends, left off below: GCCTAGCAC … GTCTTGATTCGCTTGACGCTGCTG
Construct (chain): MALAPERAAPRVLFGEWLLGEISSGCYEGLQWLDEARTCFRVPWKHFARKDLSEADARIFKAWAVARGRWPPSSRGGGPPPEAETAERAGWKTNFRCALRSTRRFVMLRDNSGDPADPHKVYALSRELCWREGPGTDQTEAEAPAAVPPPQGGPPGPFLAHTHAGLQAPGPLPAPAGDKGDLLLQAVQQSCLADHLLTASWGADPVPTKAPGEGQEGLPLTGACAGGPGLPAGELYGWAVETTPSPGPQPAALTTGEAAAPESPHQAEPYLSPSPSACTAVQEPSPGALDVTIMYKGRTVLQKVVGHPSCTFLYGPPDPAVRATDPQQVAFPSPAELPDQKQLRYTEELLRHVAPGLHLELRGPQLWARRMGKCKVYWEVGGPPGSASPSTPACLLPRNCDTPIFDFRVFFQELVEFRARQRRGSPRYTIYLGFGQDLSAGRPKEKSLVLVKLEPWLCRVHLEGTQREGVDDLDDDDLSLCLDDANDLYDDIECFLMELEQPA
Under “fitted relative affinity”, `GACGAACTGGGGTATCGAGATGTGCTA` is recorded as 0.239 z-score.
`GACGGTTTCCTTTCCCGGACGTGCTAG` — result for “fitted relative affinity”: 4.55 z-score.
`GCTATTTTTAGGATGGGCTAGTGCTAG` — result for “fitted relative affinity”: 0.162 z-score.
Under “fitted relative affinity”, `GACGATATCAGTTTTGAGACGTGCTAG` is recorded as 0.696 z-score.
Under “fitted relative affinity”, `TCATTTTTTTTTCTGATACTGTGCTAG` is recorded as 2.03 z-score.
`TTAGGTTTCGACACTTGGTTAGTGCTA` — result for “fitted relative affinity”: 2.24 z-score.
Under “fitted relative affinity”, `GACGGTCTCGGACTTGGGACGTGCTAG` is recorded as -0.477 z-score.
For `TCATGCTTCAGGTTTACCACTGTGCTA`, “fitted relative affinity” read 0.913 z-score.

A few entries again (series 1):
`CC1=C(/C=C/C(C)=C/C=C/C(C)=C/C=C/C=C(C)/C=C/C=C(C)/C=C/C2=C(C)C(=O)[C@@H](O)CC2(C)C)C(C)(C)C[C@H](O)C1=O` has an inhibition of 5.82%.
`CN(C)CCOC(=O)COc1ccc(Cl)cc1` has an inhibition of -1.34%.
